Results collected from several papers.
Numbered parts are unrelated; each lists some results of a single study. Values joined by “and” are separate records of one study, mostly repeats; a detail may differ.
Sequence of UniProt O94804 (whole entry, looked up): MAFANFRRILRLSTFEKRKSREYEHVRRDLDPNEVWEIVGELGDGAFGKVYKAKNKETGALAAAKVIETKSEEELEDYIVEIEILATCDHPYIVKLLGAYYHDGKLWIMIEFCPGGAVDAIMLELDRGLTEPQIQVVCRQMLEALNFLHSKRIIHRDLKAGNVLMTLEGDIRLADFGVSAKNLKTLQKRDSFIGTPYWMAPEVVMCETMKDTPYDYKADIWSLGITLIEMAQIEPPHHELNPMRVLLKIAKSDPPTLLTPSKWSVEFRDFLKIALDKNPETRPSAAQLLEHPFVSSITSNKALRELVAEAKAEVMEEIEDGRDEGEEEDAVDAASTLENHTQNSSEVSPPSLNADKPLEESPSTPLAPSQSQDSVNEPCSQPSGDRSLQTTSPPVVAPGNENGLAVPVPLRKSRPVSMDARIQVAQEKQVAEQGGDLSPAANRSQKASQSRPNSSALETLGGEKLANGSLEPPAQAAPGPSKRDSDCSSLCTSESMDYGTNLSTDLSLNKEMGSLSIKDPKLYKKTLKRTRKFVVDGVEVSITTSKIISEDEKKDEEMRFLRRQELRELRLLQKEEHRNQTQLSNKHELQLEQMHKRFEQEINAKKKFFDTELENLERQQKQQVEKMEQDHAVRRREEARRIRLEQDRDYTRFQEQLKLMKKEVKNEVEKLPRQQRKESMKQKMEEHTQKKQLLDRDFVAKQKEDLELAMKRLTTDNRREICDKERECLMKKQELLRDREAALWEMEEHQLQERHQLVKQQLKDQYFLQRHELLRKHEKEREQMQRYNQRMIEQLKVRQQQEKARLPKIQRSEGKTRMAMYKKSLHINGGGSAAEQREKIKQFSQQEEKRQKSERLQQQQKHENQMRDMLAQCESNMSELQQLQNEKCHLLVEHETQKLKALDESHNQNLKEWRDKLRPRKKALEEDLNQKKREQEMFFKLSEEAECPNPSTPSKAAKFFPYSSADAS
Sequence of UniProt Q16832 (whole entry, looked up): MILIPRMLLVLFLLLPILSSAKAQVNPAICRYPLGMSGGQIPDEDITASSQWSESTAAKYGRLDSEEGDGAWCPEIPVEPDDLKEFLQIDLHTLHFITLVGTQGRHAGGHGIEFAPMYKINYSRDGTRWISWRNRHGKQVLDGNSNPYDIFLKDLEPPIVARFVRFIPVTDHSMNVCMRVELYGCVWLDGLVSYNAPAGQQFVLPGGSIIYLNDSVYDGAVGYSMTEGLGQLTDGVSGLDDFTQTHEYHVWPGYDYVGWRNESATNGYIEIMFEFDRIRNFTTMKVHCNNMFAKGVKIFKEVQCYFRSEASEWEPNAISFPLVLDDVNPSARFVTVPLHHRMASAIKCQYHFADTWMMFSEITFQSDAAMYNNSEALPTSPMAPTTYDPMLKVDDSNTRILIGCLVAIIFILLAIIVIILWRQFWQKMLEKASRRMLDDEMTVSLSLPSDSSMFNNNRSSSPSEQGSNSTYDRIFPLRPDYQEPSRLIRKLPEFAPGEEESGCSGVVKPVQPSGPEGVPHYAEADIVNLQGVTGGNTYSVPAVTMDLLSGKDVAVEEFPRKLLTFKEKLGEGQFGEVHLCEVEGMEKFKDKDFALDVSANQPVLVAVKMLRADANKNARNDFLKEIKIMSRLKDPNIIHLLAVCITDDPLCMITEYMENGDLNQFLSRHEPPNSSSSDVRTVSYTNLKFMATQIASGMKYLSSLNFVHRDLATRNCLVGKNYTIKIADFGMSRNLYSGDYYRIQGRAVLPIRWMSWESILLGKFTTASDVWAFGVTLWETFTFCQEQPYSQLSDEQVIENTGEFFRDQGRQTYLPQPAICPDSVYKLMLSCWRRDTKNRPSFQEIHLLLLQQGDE
Sequence of UniProt Q08345 (whole entry, looked up): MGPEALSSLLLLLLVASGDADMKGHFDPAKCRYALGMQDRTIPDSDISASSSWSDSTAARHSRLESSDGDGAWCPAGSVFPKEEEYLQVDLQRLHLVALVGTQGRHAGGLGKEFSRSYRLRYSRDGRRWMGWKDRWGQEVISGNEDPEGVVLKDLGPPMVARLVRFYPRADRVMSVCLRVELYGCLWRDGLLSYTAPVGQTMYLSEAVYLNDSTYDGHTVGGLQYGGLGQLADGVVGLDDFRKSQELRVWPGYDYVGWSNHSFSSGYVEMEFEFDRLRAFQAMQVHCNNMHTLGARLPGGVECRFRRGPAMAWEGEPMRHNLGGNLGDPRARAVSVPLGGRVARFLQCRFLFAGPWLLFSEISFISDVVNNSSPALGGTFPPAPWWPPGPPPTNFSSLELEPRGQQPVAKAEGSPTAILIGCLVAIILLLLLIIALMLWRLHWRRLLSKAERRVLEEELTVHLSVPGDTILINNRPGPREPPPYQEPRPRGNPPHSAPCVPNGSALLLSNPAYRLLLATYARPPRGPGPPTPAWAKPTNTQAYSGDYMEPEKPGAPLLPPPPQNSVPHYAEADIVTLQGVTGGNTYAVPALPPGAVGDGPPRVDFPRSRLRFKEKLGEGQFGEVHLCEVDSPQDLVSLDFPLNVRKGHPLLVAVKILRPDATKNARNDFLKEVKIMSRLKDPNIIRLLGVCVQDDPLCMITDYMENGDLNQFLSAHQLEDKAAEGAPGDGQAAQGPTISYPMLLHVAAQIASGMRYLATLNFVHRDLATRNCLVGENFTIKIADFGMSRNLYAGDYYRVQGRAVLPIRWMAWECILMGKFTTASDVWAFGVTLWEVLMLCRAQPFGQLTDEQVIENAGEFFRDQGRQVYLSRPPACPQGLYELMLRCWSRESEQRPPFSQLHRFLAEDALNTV
Sequence of UniProt O15197 (whole entry, looked up): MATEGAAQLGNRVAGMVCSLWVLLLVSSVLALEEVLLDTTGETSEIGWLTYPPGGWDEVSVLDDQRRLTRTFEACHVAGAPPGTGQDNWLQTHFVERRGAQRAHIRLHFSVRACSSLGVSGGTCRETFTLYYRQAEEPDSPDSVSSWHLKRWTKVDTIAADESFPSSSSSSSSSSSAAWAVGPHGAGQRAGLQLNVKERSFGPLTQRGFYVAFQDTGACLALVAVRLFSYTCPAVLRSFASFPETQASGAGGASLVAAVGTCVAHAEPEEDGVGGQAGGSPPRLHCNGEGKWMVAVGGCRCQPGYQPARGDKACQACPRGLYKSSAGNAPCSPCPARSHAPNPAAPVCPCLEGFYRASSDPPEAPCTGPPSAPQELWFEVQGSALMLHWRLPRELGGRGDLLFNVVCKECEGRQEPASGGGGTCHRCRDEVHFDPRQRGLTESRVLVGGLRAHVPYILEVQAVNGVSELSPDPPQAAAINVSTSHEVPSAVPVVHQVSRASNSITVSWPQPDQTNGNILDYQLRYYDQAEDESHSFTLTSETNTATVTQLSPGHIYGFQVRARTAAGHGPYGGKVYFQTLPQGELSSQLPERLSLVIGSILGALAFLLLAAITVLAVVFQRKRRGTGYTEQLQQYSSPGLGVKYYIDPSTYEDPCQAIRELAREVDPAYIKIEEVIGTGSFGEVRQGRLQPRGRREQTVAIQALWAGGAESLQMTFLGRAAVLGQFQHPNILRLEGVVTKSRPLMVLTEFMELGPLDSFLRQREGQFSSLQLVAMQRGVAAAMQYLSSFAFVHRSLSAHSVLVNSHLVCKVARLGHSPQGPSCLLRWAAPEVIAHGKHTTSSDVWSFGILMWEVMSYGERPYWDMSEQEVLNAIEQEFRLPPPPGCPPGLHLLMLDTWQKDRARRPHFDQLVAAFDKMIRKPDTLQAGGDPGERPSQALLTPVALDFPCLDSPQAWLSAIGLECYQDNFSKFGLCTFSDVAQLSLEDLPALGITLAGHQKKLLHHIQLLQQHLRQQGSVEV
Sequence of UniProt P07948 (whole entry, looked up): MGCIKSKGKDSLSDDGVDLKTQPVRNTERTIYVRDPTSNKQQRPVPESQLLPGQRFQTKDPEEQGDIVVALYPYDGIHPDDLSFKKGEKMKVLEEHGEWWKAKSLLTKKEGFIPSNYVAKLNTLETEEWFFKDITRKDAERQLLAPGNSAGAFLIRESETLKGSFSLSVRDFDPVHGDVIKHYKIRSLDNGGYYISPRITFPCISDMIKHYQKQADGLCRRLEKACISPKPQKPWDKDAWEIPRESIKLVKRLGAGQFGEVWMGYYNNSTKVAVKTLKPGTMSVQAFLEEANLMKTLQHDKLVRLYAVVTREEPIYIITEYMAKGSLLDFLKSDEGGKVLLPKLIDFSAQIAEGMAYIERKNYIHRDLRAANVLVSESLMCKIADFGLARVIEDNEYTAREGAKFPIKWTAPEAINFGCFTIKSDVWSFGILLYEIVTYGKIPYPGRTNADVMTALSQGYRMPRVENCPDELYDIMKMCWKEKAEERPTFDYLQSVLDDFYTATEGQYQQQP

Set 1 — read-out: target engagement; method: NanoBRET; matrix: live cells
SMILES: Cc1cc(NC(=O)c2cccc(S(F)(F)(F)(F)F)c2)cc(-n2ccn3nc(-c4cccnc4)cc23)c1
For Tyrosine-protein kinase receptor Tie-1 (TIE1, Homo sapiens, UniProt P35590): EC50 read 2.98 µM and 3.45 µM and 1.26 µM.
It gave 4 µM and 3.36 µM and 2.56 µM for EC50 (Angiopoietin-1 receptor (TEK, Homo sapiens, UniProt Q02763)).
For Serine/threonine-protein kinase 10 (STK10, Homo sapiens, UniProt O94804): EC50 read 2.16 µM and 3.98 µM and 3.41 µM.
Epithelial discoidin domain-containing receptor 1 (DDR1, Homo sapiens, UniProt Q08345) — EC50: 0.129 µM and 0.264 µM and 0.216 µM.
For Tyrosine-protein kinase Lyn (LYN, Homo sapiens, UniProt P07948): EC50 read over 50 µM.
It gave 1.09 µM and 5.67 µM and 1.44 µM for EC50 (Discoidin domain-containing receptor 2 (DDR2, Homo sapiens, UniProt Q16832)).
The EC50 was 28.8 µM and 38.6 µM and 14.2 µM (Ephrin type-B receptor 6 (EPHB6, Homo sapiens, UniProt O15197)).

Set 2 — cell line: HaCaT; concentration: 100 µM; time: 18 h
The viability of `CC(C)N(CCNC(=O)CN1CCCC1=O)C(C)C` is reported as 113%.
With `NCC(CC(=O)O)c1ccc(Cl)cc1` (centres unmarked) the viability was 96.3%.
For `N=C(N)NN`, the viability was 115%.
`C[C@@H]1CC[C@@]2(OC1)O[C@H]1[C@@H](O)[C@H]3[C@@H]4CC[C@H]5C[C@@H](O[C@@H]6O[C@H](CO)[C@H](O[C@@H]7O[C@H](CO)[C@@H](O)[C@H](O[C@@H]8OC[C@@H](O)[C@H](O)[C@H]8O)[C@H]7O[C@@H]7O[C@H](CO)[C@H](O)[C@H](O[C@@H]8O[C@H](CO)[C@@H](O)[C@H](O)[C@H]8O)[C@H]7O)[C@H](O)[C@H]6O)[C@H](O)C[C@]5(C)[C@H]4CC[C@]3(C)[C@H]1[C@@H]2C` has a viability of 15.4%.
`CNCC(O)c1ccc(O)cc1` (centres unmarked) has a viability of 108%.
`C[C@]12C=CC(=O)C=C1CC[C@@H]1[C@@H]2CC[C@@]2(C)[C@H]1CC[C@]2(C)O` has a viability of 92.3%.
With `CC[C@@]1(O)C(=O)OCc2c1cc1n(c2=O)Cc2cc3cc(O)ccc3nc2-1` the viability was 62%.
`C[C@@H]1CC[C@H]2[C@@H](C)C(=O)O[C@@H]3O[C@@]4(C)CC[C@@H]1[C@]32OO4` has a viability of 115%.
`CCOC(=O)CC(SP(=S)(OC)OC)C(=O)OCC` (centres unmarked) gave a viability of 43.8%.
For `ClCC1C(CCl)[C@@]2(Cl)C(Cl)=C(Cl)[C@]1(Cl)C2(Cl)Cl` (some centres unmarked), the viability was 20.1%.

Set 3 — species: patients, advanced malignancies; route: oral; dose: dose not given
Compound: COc1ccc(-c2c(Nc3ccccn3)[nH]c3c(C4=CCCCC4)c(-c4ccccc4)nn3c2=O)cc1
It gave 32.5% for “patients with adverse event” (treatment-emergent Nausea).
The “patients with adverse event” was 10% (treatment-emergent Chills).
For treatment-emergent Asthenia: “patients with adverse event” read 12.5%.
grade 3 or higher Dyspnoea — “patients with adverse event”: 7.5%.
The “patients with adverse event” was 10% (treatment-emergent Hyperglycaemia).
The “patients with adverse event” was 5% (grade 3 or higher Sepsis).
The “patients with adverse event” was 10% (treatment-emergent Pneumonia).
For treatment-emergent Diarrhoea: “patients with adverse event” read 20%.
For grade 3 or higher Pneumonia: “patients with adverse event” read 7.5%.
treatment-emergent Thrombocytopenia — “patients with adverse event”: 10%.
The “patients with adverse event” was 20% (treatment-emergent Dyspnoea).

Set 4 — read-out: RNA clamping; method: fluorescence polarization; concentration: concentration not given; with: FAM-labelled poly r(AG)8 RNA
Target: Eukaryotic initiation factor 4A-III (Homo sapiens, UniProt P38919)
Sequence of UniProt P38919 (whole entry, looked up): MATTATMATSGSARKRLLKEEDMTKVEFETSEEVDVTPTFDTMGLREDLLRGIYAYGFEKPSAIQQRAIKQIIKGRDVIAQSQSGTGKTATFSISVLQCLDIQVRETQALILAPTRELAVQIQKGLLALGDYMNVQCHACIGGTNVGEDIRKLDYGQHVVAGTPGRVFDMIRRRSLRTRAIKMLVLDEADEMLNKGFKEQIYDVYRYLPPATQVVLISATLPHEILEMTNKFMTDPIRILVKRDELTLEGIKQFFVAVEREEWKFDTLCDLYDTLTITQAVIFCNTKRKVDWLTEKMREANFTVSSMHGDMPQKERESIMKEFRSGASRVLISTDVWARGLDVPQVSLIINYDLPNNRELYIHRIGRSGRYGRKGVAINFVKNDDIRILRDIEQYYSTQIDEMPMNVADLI
`COC(=O)[C@@H]1[C@@H](O)[C@@]2(O)c3c(OC)cc(OC)cc3O[C@@]2(c2ccc(Br)cc2)[C@H]1c1ccccc1`: “fluorescence polarization change” 6.8 mP.
`COC(=O)[C@@H]1[C@@H](c2ccccc2)[C@]2(c3ccc(OC)cc3)Oc3cc(OC)cc(OC)c3[C@@]23OC(c2ccc(F)cc2)=N[C@@]13O` — result for “fluorescence polarization change”: 21.5 mP.
`COC(=O)[C@H]1C(=O)[C@@]2(O)c3c(OC)cc(OC)cc3O[C@@]2(c2ccc(OC)cc2)[C@@H]1c1ccccc1` — result for “fluorescence polarization change”: 25.6 mP.
`COc1cc(OC)c2c(c1)O[C@@]1(c3ccc(Br)cc3)[C@H](c3ccccc3)C[C@@H](O)[C@@]21O`: “fluorescence polarization change” 23.8 mP.
`COc1ccc([C@@]23Oc4cc(OC)cc(OC)c4[C@]2(O)c2nc4n(c(=O)c2[C@@H]3c2ccccc2)CCC4)cc1` — result for “fluorescence polarization change”: 7.7 mP.
Under “fluorescence polarization change”, `COC(=O)[C@@H]1[C@@H](c2ccccc2)[C@]2(c3ccc(OC)cc3)Oc3cc(OC)cc(OC)c3[C@@]23OC(C)=N[C@@]13O` is recorded as 26.1 mP.
`COCc1nc2c(c(=O)[nH]1)[C@@H](c1ccccc1)[C@]1(c3ccc(OC)cc3)Oc3cc(OC)cc(OC)c3[C@]21O` — result for “fluorescence polarization change”: 35.1 mP.
`COc1ccc([C@@]23Oc4cc(OC)cc(OC)c4[C@]2(O)c2nc(-c4ccc(Cl)nc4)[nH]c(=O)c2[C@H]3c2ccccc2)cc1`: “fluorescence polarization change” 24.4 mP.
For `COC(=O)[C@@H]1[C@@H](c2ccccc2)[C@]2(c3ccc(OC)cc3)Oc3cc(OC)cc(OC)c3[C@@]23OC(c2ccccc2)=N[C@@]13O`, “fluorescence polarization change” read 5.8 mP.
`COc1ccc([C@@]23Oc4cc(OC)cc(OC)c4[C@@]24NC(C)=NC4=C(C=O)[C@H]3c2ccccc2)cc1` — result for “fluorescence polarization change”: 20.8 mP.
`COc1ccc([C@@]23Oc4cc(OC)cc(OC)c4[C@]2(O)c2nc(-c4ccc(Cl)cc4)[nH]c(=O)c2[C@H]3c2ccccc2)cc1` — result for “fluorescence polarization change”: 8.5 mP.
For `COc1cc(F)cc2c1[C@]1(O)[C@H](O)[C@H](/C(N)=N/O)[C@@H](c3ccccc3)[C@]1(c1ccc(Br)cc1)O2`, “fluorescence polarization change” read 37.7 mP.
`CCOC(=O)COc1nc(-c2ccccc2)nc2c1[C@@H](c1ccccc1)[C@]1(c3ccc(OC)cc3)Oc3cc(OC)cc(OC)c3[C@]21O` — result for “fluorescence polarization change”: 8.2 mP.

A few entries again (set 3):
For treatment-emergent Asthenia: “patients with adverse event” read 12.5%.
grade 3 or higher Dyspnoea — “patients with adverse event”: 7.5%.
The “patients with adverse event” was 10% (treatment-emergent Hyperglycaemia).
The “patients with adverse event” was 5% (grade 3 or higher Sepsis).
The “patients with adverse event” was 10% (treatment-emergent Pneumonia).
For treatment-emergent Diarrhoea: “patients with adverse event” read 20%.
For grade 3 or higher Pneumonia: “patients with adverse event” read 7.5%.
